{"data": "Results of several laboratories", "note": "A part holds a random share of what one study measured. “And” joins repeats or separate records; there may be more than shown.", "UniProt Q00537, sequence (whole entry, looked up)": "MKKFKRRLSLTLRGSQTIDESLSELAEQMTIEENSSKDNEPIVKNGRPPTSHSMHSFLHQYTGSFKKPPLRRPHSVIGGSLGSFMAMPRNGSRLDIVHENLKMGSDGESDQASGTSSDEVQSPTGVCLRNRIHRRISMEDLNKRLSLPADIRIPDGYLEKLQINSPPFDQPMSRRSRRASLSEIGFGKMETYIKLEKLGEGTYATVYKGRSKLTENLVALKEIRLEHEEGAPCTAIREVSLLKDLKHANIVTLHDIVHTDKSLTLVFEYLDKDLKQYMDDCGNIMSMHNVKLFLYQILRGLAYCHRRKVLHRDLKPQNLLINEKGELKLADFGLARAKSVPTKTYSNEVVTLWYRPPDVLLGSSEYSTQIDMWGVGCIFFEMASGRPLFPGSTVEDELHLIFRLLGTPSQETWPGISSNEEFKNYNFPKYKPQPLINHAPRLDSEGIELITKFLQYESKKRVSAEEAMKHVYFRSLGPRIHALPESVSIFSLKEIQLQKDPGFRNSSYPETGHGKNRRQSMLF", "UniProt Q9H1R3, sequence (whole entry, looked up)": "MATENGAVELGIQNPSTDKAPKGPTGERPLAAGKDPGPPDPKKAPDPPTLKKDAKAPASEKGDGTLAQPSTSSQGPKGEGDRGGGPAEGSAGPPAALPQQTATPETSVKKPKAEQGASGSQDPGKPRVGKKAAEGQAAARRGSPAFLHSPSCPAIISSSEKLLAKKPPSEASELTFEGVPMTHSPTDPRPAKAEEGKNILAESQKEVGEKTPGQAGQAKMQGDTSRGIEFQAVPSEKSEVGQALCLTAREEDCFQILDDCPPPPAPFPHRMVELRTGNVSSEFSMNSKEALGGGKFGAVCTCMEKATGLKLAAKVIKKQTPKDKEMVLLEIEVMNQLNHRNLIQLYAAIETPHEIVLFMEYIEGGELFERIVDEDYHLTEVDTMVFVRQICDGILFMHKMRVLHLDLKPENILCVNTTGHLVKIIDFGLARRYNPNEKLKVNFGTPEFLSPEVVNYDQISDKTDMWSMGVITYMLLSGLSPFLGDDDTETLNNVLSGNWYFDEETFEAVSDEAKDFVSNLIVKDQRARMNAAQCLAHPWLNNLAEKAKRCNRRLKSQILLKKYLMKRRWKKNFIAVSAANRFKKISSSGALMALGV", "UniProt P23458, sequence (whole entry, looked up)": "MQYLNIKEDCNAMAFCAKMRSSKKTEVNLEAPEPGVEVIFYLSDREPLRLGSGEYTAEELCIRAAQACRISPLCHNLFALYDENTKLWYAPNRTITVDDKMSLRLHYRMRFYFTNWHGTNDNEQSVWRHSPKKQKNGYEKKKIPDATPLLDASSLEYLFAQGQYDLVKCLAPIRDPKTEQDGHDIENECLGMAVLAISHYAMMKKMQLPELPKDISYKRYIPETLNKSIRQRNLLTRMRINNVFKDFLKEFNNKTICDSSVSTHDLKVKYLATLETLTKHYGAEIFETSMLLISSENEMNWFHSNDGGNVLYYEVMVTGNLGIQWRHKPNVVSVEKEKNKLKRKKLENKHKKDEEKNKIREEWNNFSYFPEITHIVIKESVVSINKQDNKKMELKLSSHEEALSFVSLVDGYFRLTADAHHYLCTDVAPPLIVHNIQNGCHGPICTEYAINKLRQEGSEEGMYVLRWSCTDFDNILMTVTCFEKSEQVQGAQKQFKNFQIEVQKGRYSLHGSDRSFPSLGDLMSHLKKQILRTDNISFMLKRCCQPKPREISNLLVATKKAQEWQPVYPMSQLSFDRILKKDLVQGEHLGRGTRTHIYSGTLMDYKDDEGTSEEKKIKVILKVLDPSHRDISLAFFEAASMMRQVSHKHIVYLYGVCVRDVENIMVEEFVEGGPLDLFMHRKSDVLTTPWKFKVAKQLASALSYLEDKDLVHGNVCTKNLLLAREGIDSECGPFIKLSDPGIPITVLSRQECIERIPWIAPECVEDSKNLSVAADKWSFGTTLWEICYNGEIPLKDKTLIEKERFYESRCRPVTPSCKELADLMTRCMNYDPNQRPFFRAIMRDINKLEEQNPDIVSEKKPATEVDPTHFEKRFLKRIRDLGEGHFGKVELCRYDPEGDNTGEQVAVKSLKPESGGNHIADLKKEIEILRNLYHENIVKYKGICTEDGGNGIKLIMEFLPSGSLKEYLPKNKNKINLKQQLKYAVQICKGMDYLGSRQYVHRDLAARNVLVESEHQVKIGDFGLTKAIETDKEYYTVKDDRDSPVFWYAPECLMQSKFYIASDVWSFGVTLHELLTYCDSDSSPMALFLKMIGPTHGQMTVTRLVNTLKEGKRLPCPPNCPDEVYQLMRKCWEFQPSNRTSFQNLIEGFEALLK", "UniProt P42684, sequence (whole entry, looked up)": "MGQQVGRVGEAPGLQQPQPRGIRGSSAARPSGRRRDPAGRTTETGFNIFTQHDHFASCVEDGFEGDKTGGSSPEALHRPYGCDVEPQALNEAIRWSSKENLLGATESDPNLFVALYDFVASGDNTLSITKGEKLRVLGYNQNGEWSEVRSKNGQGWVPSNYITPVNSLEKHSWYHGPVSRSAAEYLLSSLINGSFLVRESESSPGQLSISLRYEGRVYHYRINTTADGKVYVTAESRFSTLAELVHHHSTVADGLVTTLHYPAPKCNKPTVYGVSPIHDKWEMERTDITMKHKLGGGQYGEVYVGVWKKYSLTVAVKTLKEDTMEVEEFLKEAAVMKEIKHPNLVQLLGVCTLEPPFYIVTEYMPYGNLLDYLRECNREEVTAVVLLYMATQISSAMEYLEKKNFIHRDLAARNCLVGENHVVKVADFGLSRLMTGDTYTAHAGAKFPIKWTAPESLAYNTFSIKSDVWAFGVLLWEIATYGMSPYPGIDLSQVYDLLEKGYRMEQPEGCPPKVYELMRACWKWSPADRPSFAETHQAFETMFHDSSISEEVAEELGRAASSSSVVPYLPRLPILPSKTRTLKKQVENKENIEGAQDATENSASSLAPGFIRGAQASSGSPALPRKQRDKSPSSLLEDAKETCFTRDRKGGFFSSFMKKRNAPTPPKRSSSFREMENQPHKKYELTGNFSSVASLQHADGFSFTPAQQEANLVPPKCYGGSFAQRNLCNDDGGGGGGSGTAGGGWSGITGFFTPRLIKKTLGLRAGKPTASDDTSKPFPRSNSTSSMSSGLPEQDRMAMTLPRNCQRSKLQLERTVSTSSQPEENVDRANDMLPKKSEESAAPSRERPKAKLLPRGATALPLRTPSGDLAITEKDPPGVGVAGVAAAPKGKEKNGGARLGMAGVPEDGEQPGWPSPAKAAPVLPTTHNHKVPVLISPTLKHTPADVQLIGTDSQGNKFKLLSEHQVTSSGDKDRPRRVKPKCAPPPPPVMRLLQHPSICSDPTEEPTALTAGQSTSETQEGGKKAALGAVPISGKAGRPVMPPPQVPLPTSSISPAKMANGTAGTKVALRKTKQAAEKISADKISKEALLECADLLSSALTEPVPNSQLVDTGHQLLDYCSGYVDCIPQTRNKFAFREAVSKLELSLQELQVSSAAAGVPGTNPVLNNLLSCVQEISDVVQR", "UniProt Q9HBY8, sequence (whole entry, looked up)": "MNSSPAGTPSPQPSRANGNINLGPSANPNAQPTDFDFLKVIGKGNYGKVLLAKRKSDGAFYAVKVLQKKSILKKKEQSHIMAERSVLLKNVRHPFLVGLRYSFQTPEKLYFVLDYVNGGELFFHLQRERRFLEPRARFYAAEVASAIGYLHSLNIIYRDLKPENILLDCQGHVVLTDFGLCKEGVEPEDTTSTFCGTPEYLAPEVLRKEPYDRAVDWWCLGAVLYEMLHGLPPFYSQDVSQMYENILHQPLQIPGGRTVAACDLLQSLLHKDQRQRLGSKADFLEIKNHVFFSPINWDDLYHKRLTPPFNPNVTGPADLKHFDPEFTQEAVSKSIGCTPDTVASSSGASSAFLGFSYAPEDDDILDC"}
{"data": "Set 1", "target": "Eukaryotic initiation factor 4A-III (Homo sapiens, UniProt P38919)", "effect on": "RNA clamping", "method": "fluorescence polarization", "concentration": "concentration not given", "notes": "mean of two replicates", "added": "FAM-labelled poly r(AG)8 RNA", "UniProt P38919, sequence (whole entry, looked up)": "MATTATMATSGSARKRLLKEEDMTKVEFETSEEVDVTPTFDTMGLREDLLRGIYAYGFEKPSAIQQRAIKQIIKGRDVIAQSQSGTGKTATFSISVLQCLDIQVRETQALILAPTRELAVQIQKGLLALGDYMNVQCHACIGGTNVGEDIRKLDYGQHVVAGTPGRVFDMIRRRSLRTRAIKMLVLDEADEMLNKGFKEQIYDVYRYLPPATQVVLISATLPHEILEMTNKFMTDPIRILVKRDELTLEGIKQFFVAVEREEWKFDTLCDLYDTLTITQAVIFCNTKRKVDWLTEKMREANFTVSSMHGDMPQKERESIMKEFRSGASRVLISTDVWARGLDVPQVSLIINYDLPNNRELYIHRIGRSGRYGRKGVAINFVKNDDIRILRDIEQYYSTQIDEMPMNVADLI"}
{"Compound": "COC(=O)/C=C/n1c(-c2ccccc2)nc2c(c1=O)[C@@H](c1ccccc1)[C@]1(c3ccc(OC)cc3)Oc3cc(OC)cc(OC)c3[C@]21O", "fluorescence polarization change": "9.9 mP"}
{"Compound": "COC(=O)[C@@H]1[C@@H](c2ccccc2)[C@]2(c3ccc(OC)cc3)Oc3cc(OC)cc(OC)c3[C@@]23NC(c2ccc(C(F)(F)F)cc2)=N[C@@]13O", "fluorescence polarization change": "4 mP"}
{"Compound": "COC(=O)[C@@H]1[C@@H](c2ccccc2)[C@]2(c3ccc(OC)cc3)Oc3cc(OC)cc(OC)c3[C@@]23OC(c2ccc(OCc4ccccc4)cc2)=N[C@@]13O", "fluorescence polarization change": "3 mP"}
{"Compound": "COC(=O)/C=C/Cn1c(-c2ccccc2)nc2c(c1=O)[C@@H](c1ccccc1)[C@]1(c3ccc(OC)cc3)Oc3cc(OC)cc(OC)c3[C@]21O", "fluorescence polarization change": "4.3 mP"}
{"Compound": "COC(=O)[C@@H]1[C@@H](c2ccccc2)[C@]2(c3ccc(OC)cc3)Oc3cc(OC)cc(OC)c3[C@@]23NC(c2ccc(Br)cc2)=N[C@@]13O", "fluorescence polarization change": "4.8 mP"}
{"Compound": "COc1ccc([C@@]23Oc4cc(OC)cc(OC)c4[C@]2(O)[C@H](O)[C@H](C(=O)c2ccccc2)[C@H]3c2ccccc2)cc1", "fluorescence polarization change": "5.2 mP"}
{"Compound": "COC(=O)[C@H]1C(=O)[C@@]2(Nc3ccccc3)c3c(OC)cc(OC)cc3O[C@@]2(c2ccc(OC)cc2)[C@@H]1c1ccccc1", "fluorescence polarization change": "0.9 mP"}
{"Compound": "COc1ccc([C@@]23Oc4cc(O)cc(OC)c4[C@]2(O)[C@H](O)[C@H](C(=O)c2ccco2)[C@H]3c2ccccc2)cc1", "fluorescence polarization change": "9.9 mP"}
{"Compound": "COC(=O)[C@@H]1[C@@H](c2ccccc2)[C@]2(c3ccc(OC)cc3)Oc3cc(OC)cc(OC)c3[C@@]23NC(Cc2ccccc2)=N[C@@]13O", "fluorescence polarization change": "15.1 mP and 27.2 mP"}
{"Compound": "COc1ccc([C@H]2[C@H](C(=O)N(C)C)[C@@H](O)[C@@]3(O)c4c(OC)cc(OC)cc4O[C@@]23c2ccc(OC)cc2)cc1", "fluorescence polarization change": "0.3 mP"}
{"Compound": "C#CCCC1(CCOc2ccc([C@@H]3[C@@H](C(=O)c4ccco4)[C@@H](O)[C@@]4(O)c5c(OC)cc(OC)cc5O[C@@]34c3ccc(OC)cc3)cc2)N=N1", "fluorescence polarization change": "-3.3 mP"}
{"Compound": "CCOC(=O)COc1nc(-c2ccccc2)nc2c1[C@@H](c1ccccc1)[C@]1(c3ccc(OC)cc3)Oc3cc(OC)cc(OC)c3[C@]21OCC(=O)OCC", "fluorescence polarization change": "3 mP"}
{"data": "Set 2", "SMILES": "COc1ccc2c(c1)O[C@@H](c1ccc(OC)c(OC)c1)C[C@H]2NC(=O)C1(c2ccc3c(c2)OC(F)(F)O3)CC1", "effect on": "cell-free assay", "method": "competition with immobilised ligand", "concentration": "1 µM"}
{"target": "PLK3 (Homo sapiens, UniProt Q9H4B4)", "remaining binding [%]": 92}
{"target": "DAPK3 (Homo sapiens, UniProt O43293)", "remaining binding [%]": 93}
{"target": "PIK3CA (Homo sapiens, UniProt P42336, H1047L)", "remaining binding [%]": 77}
{"target": "Tyrosine-protein kinase JAK1, JH1 (JAK1, Homo sapiens, UniProt P23458)", "remaining binding [%]": 100}
{"target": "MAPK11 (Homo sapiens, UniProt Q15759)", "remaining binding [%]": 92}
{"target": "DYRK2 (Homo sapiens, UniProt Q92630)", "remaining binding [%]": 75}
{"target": "ABL2 (Homo sapiens, UniProt P42684)", "remaining binding [%]": 89}
{"target": "SGK2 (Homo sapiens, UniProt Q9HBY8)", "remaining binding [%]": 94}
{"target": "RET (Homo sapiens, UniProt P07949, V804M)", "remaining binding [%]": 95}
{"target": "ULK2 (Homo sapiens, UniProt Q8IYT8)", "remaining binding [%]": 77}
{"target": "MYLK2 (Homo sapiens, UniProt Q9H1R3)", "remaining binding [%]": 90}
{"target": "NUAK2 (Homo sapiens, UniProt Q9H093)", "remaining binding [%]": 76}
{"target": "TAOK1 (Homo sapiens, UniProt Q7L7X3)", "remaining binding [%]": 93}
{"target": "SLK (Homo sapiens, UniProt Q9H2G2)", "remaining binding [%]": 100}
{"target": "CDK17 (Homo sapiens, UniProt Q00537)", "remaining binding [%]": 100}
{"data": "Set 3", "species": "human", "sample": "microsomes or S9", "concentration": "2 µM", "time": "0.5 h"}
{"SMILES": "Cc1cc(C)cc(NC(=O)N2Cc3c(sc4c3CCCC4)-n3cccc3C2c2cccs2)c1 (centres unmarked)", "remaining compound [%]": 32.5}
{"SMILES": "CCOC(=O)c1cc(C(C)C)sc1NC(=O)c1cc(Cl)ccc1OC", "remaining compound [%]": "> 99"}
{"SMILES": "Cc1cc(C(=O)Nc2nnc(Cc3cccs3)o2)n(C)n1", "remaining compound [%]": 65.4}
{"SMILES": "CC1(COC(=O)Nc2ccc(Cl)cc2)CCC(C(C)(C)C)=NO1 (centres unmarked)", "remaining compound [%]": "> 99"}
{"SMILES": "Cc1nc2c(s1)CN(C(=O)CNS(=O)(=O)c1ccc(Oc3ccccc3)cc1)CC2", "remaining compound [%]": 16.4}
{"SMILES": "CCOc1nc(Nc2nc(-c3ccccc3)cs2)nc(OCC)n1", "remaining compound [%]": 79.3}
{"SMILES": "COCCOc1cc(=O)n2c(c1C(=O)NC1CCCCC1)CCOCC2", "remaining compound [%]": 64}
{"SMILES": "CC(C)Cn1cc(NC(=O)NC2CCN(Cc3ccccc3)CC2)c2ccccc2c1=O", "remaining compound [%]": 48}
{"SMILES": "CNc1ncc(C(=O)NC[C@H]2CC[C@@H]3C[C@H]2C3(C)C)cn1", "remaining compound [%]": 25.2}
{"SMILES": "CSc1cc(=O)oc2c(Cl)ccc(Cl)c12", "remaining compound [%]": 63.6}
{"SMILES": "Cc1ccc2c(c1)Oc1cc(Cl)c(S(=O)(=O)N3CCc4ccccc4C3)cc1C(=O)N2", "remaining compound [%]": 3.83}
{"SMILES": "CC(C)c1nc2cc(N3CC(=O)C(c4nc(-c5ccccc5)cs4)=C3N)ccc2[nH]1", "remaining compound [%]": 91.6}
{"SMILES": "CC(C)C[C@@H]1NC(=O)[C@H](Cc2nc(Br)[nH]c2Br)NC1=O", "remaining compound [%]": 65.2}
{"SMILES": "CC(CC(=O)O)CC(=O)Nc1sc(C(C)C)cc1C(N)=O (centres unmarked)", "remaining compound [%]": 79.2}
{"SMILES": "CCOC(=O)Cn1c(C(=O)OCC)cc2cc(NS(=O)(=O)c3ccc(OC)c(OC)c3)ccc21", "remaining compound [%]": 0.058}
{"data": "Set 4", "target": "High affinity nerve growth factor receptor (NTRK1, Homo sapiens, UniProt P04629)", "effect on": "enzyme activity", "action": "inhibitor", "concentration": "0.5 µM", "relative to": "control", "UniProt P04629, sequence (whole entry, looked up)": "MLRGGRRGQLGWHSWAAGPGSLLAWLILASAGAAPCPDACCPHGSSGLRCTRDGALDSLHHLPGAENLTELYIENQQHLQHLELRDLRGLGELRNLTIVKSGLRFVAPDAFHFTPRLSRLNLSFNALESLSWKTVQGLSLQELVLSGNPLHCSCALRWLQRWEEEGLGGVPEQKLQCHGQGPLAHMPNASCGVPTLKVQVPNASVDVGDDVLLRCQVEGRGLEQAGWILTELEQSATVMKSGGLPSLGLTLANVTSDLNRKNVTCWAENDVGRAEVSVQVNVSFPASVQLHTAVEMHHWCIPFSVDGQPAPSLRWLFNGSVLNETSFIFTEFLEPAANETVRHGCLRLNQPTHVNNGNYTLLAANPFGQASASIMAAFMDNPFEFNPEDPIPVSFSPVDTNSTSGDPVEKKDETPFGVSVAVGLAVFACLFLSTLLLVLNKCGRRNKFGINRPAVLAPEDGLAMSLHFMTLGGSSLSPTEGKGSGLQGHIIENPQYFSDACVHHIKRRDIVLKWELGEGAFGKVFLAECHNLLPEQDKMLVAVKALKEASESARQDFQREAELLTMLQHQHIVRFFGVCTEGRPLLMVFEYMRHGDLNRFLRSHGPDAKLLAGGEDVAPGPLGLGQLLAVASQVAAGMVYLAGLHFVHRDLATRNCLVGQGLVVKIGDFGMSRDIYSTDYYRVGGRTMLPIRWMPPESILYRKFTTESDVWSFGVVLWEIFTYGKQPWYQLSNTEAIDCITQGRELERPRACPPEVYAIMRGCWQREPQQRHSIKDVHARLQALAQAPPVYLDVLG"}
{"SMILES": "CN(C)CCCn1cc(C2=C(c3c[nH]c4ccccc34)C(=O)NC2=O)c2ccccc21", "remaining activity [%]": 108}
{"SMILES": "CCC(=O)Nc1ccc2ncnc(Nc3cccc(Br)c3)c2c1", "remaining activity [%]": 95.8}
{"SMILES": "COc1cc2ncc(-c3ccccc3)nc2cc1OC", "remaining activity [%]": 93.2}
{"SMILES": "Cc1nc(Nc2ncc(C(=O)Nc3c(C)cccc3Cl)s2)cc(N2CCN(CCO)CC2)n1", "remaining activity [%]": 97.2}
{"SMILES": "Cn1cnc2cc3c(Nc4cccc(Br)c4)ncnc3cc21", "remaining activity [%]": 90.8}
{"SMILES": "CC(C)c1nn(-c2c(Cl)cccc2Cl)c2nc(Cc3ccc(OCCO)cc3)[nH]c(=O)c12", "remaining activity [%]": 89}
{"SMILES": "C[S+]([O-])c1ccc(-c2nc(-c3ccncc3)c(-c3ccc(F)cc3)[nH]2)cc1 (centres unmarked)", "remaining activity [%]": 100}
{"SMILES": "Cc1ccc(NC(=O)c2ccc(CN3CCN(C)CC3)cc2)cc1Nc1nccc(-c2cccnc2)n1", "remaining activity [%]": 102}
{"SMILES": "Cn1cc(/C=C2\\C(=O)Nc3ccc(S(N)(=O)=O)cc32)c2ccccc21", "remaining activity [%]": 6.15}
{"SMILES": "O=c1cc(N2CCOCC2)oc2c1ccc1ccccc12", "remaining activity [%]": 96.4}
{"SMILES": "CS(=O)(=O)CCNCc1ccc(-c2ccc3ncnc(Nc4ccc(OCc5cccc(F)c5)c(Cl)c4)c3c2)o1", "remaining activity [%]": 99.2}
{"note": "Some of these lines once more (set 3):"}
{"SMILES": "CCOC(=O)c1cc(C(C)C)sc1NC(=O)c1cc(Cl)ccc1OC", "remaining compound [%]": "> 99"}
{"SMILES": "Cc1cc(C(=O)Nc2nnc(Cc3cccs3)o2)n(C)n1", "remaining compound [%]": 65.4}
{"SMILES": "CC1(COC(=O)Nc2ccc(Cl)cc2)CCC(C(C)(C)C)=NO1 (centres unmarked)", "remaining compound [%]": "> 99"}
{"SMILES": "Cc1nc2c(s1)CN(C(=O)CNS(=O)(=O)c1ccc(Oc3ccccc3)cc1)CC2", "remaining compound [%]": 16.4}
{"SMILES": "CCOc1nc(Nc2nc(-c3ccccc3)cs2)nc(OCC)n1", "remaining compound [%]": 79.3}
{"SMILES": "COCCOc1cc(=O)n2c(c1C(=O)NC1CCCCC1)CCOCC2", "remaining compound [%]": 64}
